Experimental data pooled from the literature.
Each line is one published result; not all experiments were run side by side. Several values in a cell are separate wells, animals, samples, runs or records. ± gives the spread as reported.
uncharacterized protein: uncharacterized protein (Spodoptera exigua, UniProt F1CEY0)
Chain of UniProt P51575 (whole entry, unmodified, looked up): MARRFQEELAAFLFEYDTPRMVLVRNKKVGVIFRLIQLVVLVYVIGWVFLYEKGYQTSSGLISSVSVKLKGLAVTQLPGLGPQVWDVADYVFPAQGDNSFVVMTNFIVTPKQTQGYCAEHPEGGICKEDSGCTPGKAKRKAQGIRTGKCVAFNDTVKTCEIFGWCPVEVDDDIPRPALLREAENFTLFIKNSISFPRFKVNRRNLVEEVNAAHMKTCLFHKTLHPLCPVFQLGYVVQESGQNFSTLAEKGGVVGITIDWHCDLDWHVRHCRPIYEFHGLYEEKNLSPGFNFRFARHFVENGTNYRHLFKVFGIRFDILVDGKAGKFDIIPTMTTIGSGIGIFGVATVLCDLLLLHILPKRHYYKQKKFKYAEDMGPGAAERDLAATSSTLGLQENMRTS
Chain of UniProt P19793 (whole entry, looked up): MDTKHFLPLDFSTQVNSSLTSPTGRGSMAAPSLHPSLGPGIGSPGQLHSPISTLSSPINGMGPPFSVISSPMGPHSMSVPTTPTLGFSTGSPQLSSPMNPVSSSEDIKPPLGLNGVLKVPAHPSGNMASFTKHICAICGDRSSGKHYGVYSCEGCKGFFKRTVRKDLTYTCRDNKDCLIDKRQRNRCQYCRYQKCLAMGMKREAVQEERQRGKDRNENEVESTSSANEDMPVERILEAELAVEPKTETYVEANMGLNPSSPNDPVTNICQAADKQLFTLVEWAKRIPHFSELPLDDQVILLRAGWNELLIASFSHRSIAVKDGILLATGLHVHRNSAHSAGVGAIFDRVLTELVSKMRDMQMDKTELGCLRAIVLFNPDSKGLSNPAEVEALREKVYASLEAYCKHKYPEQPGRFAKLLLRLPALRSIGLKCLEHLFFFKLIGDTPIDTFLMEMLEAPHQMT
Chain of UniProt P28482 (whole entry, looked up): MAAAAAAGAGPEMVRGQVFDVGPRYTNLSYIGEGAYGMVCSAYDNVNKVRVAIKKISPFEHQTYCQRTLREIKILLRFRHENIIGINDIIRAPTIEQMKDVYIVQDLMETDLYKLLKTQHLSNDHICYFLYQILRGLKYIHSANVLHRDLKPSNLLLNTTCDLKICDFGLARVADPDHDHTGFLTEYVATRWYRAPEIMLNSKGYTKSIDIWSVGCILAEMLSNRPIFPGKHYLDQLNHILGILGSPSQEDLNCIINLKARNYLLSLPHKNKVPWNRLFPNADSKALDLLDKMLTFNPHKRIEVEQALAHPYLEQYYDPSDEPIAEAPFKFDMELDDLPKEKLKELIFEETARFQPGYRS
Chain of UniProt P00441 (whole entry, unmodified, looked up): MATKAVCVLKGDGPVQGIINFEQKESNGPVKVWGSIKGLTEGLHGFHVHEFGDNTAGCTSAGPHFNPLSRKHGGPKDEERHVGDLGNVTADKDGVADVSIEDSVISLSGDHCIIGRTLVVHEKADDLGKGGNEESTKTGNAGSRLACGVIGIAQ
Chain of UniProt P52497 (whole entry, looked up): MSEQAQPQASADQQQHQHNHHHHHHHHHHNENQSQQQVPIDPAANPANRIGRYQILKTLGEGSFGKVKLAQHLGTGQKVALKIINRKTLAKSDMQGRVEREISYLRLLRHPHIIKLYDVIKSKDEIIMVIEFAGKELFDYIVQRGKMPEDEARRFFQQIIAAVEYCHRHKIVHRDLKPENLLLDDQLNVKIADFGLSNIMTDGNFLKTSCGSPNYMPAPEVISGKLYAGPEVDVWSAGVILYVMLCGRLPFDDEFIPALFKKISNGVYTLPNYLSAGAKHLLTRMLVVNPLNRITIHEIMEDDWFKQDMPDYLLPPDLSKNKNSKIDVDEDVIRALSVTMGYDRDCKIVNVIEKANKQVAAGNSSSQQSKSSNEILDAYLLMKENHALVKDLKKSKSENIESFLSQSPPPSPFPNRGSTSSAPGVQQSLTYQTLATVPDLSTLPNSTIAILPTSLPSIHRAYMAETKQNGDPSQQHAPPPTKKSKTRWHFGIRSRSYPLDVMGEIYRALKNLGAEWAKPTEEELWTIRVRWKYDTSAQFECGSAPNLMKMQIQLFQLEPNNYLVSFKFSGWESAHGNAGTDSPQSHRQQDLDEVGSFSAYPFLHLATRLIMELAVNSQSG
Chain of UniProt Q16774 (whole entry, unmodified, looked up): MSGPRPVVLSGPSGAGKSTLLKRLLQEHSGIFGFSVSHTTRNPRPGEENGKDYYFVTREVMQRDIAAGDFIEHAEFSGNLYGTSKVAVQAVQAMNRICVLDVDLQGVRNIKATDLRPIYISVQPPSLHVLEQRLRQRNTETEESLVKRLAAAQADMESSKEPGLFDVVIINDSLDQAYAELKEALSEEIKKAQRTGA
Chain of UniProt P29317 (whole entry, looked up): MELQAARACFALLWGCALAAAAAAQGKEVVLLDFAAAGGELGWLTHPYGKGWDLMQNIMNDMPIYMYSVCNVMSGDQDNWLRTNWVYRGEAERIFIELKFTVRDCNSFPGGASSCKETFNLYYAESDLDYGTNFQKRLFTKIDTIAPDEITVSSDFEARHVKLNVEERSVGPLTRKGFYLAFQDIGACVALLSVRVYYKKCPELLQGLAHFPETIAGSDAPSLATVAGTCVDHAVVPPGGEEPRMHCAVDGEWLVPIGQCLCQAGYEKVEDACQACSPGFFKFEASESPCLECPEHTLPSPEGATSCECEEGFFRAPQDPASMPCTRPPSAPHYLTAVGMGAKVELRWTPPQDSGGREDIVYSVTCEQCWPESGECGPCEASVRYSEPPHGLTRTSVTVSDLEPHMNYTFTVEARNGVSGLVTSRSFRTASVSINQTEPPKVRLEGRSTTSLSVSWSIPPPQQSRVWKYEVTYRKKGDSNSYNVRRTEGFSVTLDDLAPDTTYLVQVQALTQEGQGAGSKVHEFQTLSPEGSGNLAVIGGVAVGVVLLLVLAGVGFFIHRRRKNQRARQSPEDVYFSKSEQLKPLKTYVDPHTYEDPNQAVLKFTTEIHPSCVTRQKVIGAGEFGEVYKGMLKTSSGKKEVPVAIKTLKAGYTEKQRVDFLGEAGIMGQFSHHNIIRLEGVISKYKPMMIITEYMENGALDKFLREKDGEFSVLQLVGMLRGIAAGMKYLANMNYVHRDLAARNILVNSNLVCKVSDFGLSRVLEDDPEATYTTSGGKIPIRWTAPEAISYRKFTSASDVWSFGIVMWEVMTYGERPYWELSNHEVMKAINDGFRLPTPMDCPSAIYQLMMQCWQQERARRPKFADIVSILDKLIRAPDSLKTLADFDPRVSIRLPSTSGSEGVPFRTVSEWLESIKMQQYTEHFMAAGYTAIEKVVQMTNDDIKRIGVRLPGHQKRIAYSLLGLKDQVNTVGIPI
Chain of UniProt P41145 (whole entry, looked up): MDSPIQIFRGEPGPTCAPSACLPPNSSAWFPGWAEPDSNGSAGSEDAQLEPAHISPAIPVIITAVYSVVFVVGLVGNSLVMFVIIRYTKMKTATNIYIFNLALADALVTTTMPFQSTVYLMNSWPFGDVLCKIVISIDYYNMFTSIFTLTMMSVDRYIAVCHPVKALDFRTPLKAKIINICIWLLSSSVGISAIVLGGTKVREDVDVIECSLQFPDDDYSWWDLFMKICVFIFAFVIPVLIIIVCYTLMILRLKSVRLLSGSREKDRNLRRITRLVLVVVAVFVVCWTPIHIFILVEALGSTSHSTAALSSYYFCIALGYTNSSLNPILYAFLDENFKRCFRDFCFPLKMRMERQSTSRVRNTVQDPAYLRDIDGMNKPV
Chain of UniProt P02749 (whole entry, unmodified, looked up): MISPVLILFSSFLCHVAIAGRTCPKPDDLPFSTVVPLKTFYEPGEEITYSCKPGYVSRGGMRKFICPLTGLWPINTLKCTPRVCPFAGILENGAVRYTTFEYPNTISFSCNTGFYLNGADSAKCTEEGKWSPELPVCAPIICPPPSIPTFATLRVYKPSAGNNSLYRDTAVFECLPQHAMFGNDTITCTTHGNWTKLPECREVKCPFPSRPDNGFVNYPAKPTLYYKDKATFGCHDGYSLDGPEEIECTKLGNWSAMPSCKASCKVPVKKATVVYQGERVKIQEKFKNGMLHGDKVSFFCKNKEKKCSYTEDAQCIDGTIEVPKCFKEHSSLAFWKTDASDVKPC

Cc1n[nH]c2ccc(-c3cc(OC[C@@H](N)Cc4ccccc4)cnc3-c3ccoc3)cc12
log2 fold change (Carbon catabolite-derepressing protein kinase (SNF1, Candida albicans, UniProt P52497); kinase binding, competitor, MIB/MS competition, item: SNF1; Candida albicans cell lysate; 100 nM; reference: DMSO): -0.272

CC(C)=CCC/C(C)=C/CO
relative fluorescence (uncharacterized protein; binding, competitor, fluorescence displacement; 20 µM, pH 7.4, with: 1-NPN 20 µM; reference: 1-NPN alone): 67.2%

CCCC(CCC)c1nc2c(Nc3ccc(C#CCCCCCCCCN)cc3)nc3ccccc3c2[nH]1
off-target affinity (Kappa-type opioid receptor (OPRK1, Homo sapiens, UniProt P41145); PDSP screening): inactive

N[C@H](CNC(=O)c1cc(Br)c(-c2ccccc2F)s1)C(=O)O
Hill slope (Glutamate receptor ionotropic, NMDA 1, with GluN2C (Grin1, Rattus norvegicus, UniProt P35439); with: glutamate 300 µM): 1.29

C1CCCC1.C1CCCC1.[Cl][W][Cl]
Gibbs free energy change (Albumin (ALB, Homo sapiens, UniProt P02768); binding, fluorescence quenching; 317 K): -22.5 kJ/mol

CCCCCCCOC(C)=O
relative fluorescence (uncharacterized protein; binding, competitor, fluorescence displacement; 20 µM, pH 7.4, with: 1-NPN 20 µM; reference: 1-NPN alone): 59.1%

N[C@@H](Cc1ccccc1)C(=O)Nc1ccc2ccccc2c1
Km (Puromycin-sensitive aminopeptidase (Rattus norvegicus, UniProt F1M9V7); substrate): 50 µM

O=c1nc(SCc2cc(F)cc(C(F)(F)F)c2)nc(SCc2ccc3nc(Cl)ccc3c2)[nH]1
decatenated DNA (DNA topoisomerase 2-alpha (TOP2A, Homo sapiens, UniProt P11388); decatenation; 7.8 µM, replicate 1): 78%

CCC(=O)NS(=O)(=O)c1ccc(-c2c(-c3ccccc3)noc2C)cc1
activation (Retinoic acid receptor RXR-alpha (RXRA, Homo sapiens, UniProt P19793); reporter gene, Gal4 hybrid reporter; 50 µM; reference: vehicle): 1.02 fold

CC[C@@H]1[C@H](F)C(=O)N[C@@H]1COc1nccc2cc(C(N)=O)c(OC)cc12
inhibition (Ephrin type-A receptor 2 (EPHA2, Homo sapiens, UniProt P29317); ATP probe binding, KiNativ profiling, item: activation loop probe site; THP-1 cell lysate; 0.2 mM): 2.2%

[O-][S+]1CCCCS1 (stereo not drawn)
SOD1 monomer fraction (Superoxide dismutase [Cu-Zn] (SOD1, Homo sapiens, UniProt P00441, G94A); LC-MS; brain homogenate; 50 µM, 1 h, 37 °C): 85.3%

Nc1ncnc2c1ncn2[C@@H]1O[C@H](CO[P@](=O)(O)O[P@](=O)(O)O[P@@](=O)(O)S)[C@@H](O)[C@H]1O
ΔH (GUK1 (Homo sapiens, UniProt Q16774); ITC; molar ratio 1.11): -0.99 kcal/mol

C=CC(=O)N1CCC[C@@H](n2nc(-c3ccc(Oc4ccccc4)cc3)c3c(N)ncnc32)C1
remaining activity (Mitogen-activated protein kinase 1 (MAPK1, Homo sapiens, UniProt P28482); 0.1 µM): 40.9%

Nc1ncnc2c1ncn2[C@@H]1O[C@H](COP(=O)(O)CP(=O)(O)OP(=O)(O)O)[C@@H](O)[C@H]1O
specific binding (P2X purinoceptor 1 (P2RX1, Homo sapiens, UniProt P51575, R139P); saturation binding; HEK293; 13 nM): 245 CCPM and 236 CCPM

CO[C@H]1O[C@H](COS(=O)(=O)O)[C@@H](O[C@@H]2O[C@@H](C(=O)O)[C@@H](O[C@H]3O[C@H](COS(=O)(=O)O)[C@@H](O[C@@H]4O[C@H](C(=O)O)[C@@H](O[C@H]5O[C@H](COS(=O)(=O)O)[C@@H](O)[C@H](O)[C@H]5NS(=O)(=O)O)[C@H](O)[C@H]4O)[C@H](OS(=O)(=O)O)[C@H]3NS(=O)(=O)O)[C@H](O)[C@H]2OS(=O)(=O)O)[C@H](O)[C@H]1NS(=O)(=O)O
binding stoichiometry (Beta-2-glycoprotein 1, domain V (APOH, Homo sapiens, UniProt P02749, V266L); isothermal titration calorimetry; concentration not given, 298 K, with: 50 mM NaCl): 0.93 ± 0.01

Repeated from above:
CO[C@H]1O[C@H](COS(=O)(=O)O)[C@@H](O[C@@H]2O[C@@H](C(=O)O)[C@@H](O[C@H]3O[C@H](COS(=O)(=O)O)[C@@H](O[C@@H]4O[C@H](C(=O)O)[C@@H](O[C@H]5O[C@H](COS(=O)(=O)O)[C@@H](O)[C@H](O)[C@H]5NS(=O)(=O)O)[C@H](O)[C@H]4O)[C@H](OS(=O)(=O)O)[C@H]3NS(=O)(=O)O)[C@H](O)[C@H]2OS(=O)(=O)O)[C@H](O)[C@H]1NS(=O)(=O)O
binding stoichiometry (Beta-2-glycoprotein 1, domain V (APOH, Homo sapiens, UniProt P02749, V266L); isothermal titration calorimetry; concentration not given, 298 K, with: 50 mM NaCl): 0.93 ± 0.01
